Experimental data collected from several papers.
Each line is one published result; not all experiments were run side by side. Several values in a cell are separate wells, animals, samples, runs or records. ± gives the spread as reported.

| SMILES | target or system | assay | test system | conditions | how to read | quantity | result |
| --- | --- | --- | --- | --- | --- | --- | --- |
| COc1cc(-c2cn(C)c(=O)c3cnccc23)c(OC)cc1Cn1ccnc1 | Kasumi 1 | cell growth or viability, ATP luminescence | – | – | – | IC50 | 0.4 µM |
| Oc1cccc2c1[nH]c1c(C3=CC4(O)CCC=CCCCCN5CCC3C3(CC6C=CCCCCN6C43)C5)nccc12 (single isomer, unassigned; (+)) | LLC-PK11 | cell growth or viability, neutral red | – | 48 h | – | IC50 | 1.25 µg/mL |
| Nc1ncc(-c2cc(-c3cnn(CC(F)(F)F)c3)ncc2F)nc1C(=O)NC1CNCC(F)C1 (stereo not shown) | CAMK4 | KINOMEscan | – | 1 µM | reference: DMSO control | remaining binding | 98% |
| CC(=O)NCCOCCNC(=O)c1cc(C(=O)N2CCNCCNCCNCC2)c(O)c(C(=O)N2CCNCCNCCNCC2)c1 | PK-59 | cell growth or viability, MTT | – | 24 h | – | IC50 | > 1000 µM |
| CCOc1cncc(-c2ccc(NC(=O)C3(c4ccnc(NS(=O)(=O)C5CC5)n4)CCOCC3)nc2)n1 | lung cancer | cell viability, CellTiter-Glo | DMSO 0.1% | 72 h, line code 1647 | – | IC50 | 0.522 µM |
| CN(C)c1ccc(/C=C/c2cc(/C=C3\Sc4ccccc4N3CCCN3CCCC3)c3ccccc3[n+]2C)cc1 | HK-2 | cell growth or viability, MTT | – | 36 h | – | IC50 | 10.4 µM |
| CNS(=O)(=O)Nc1nccc(Cc2c(C)c3ccc(Oc4ncccc4F)cc3oc2=O)c1F | YAPC | cell viability | – | 7 days | – | IC50 | > 1 µM |
| CC(C)c1ccc(N(C)c2ccc3c(c2)OCC[C@H]3CNc2cnccc2C(=O)O)cc1 | NCI-H2171 | cell growth or viability, ATP luminescence | – | 7 days | – | IC50 | ≥ 10 µM |
| O=C1CCCC2=C1C(c1c[nH]c3ccccc13)c1cc(Br)ccc1O2 (stereo not shown) | 3T3-L1 | cell growth or viability, MTT | – | 72 h | – | IC50 | > 100 µg/mL |
| C=C1C(=O)OC2C1CCC(C)(O)C13C=CC(C)(C21)C1(C3)C(=O)OC2C3C(C)=CCC3C(C)(O)CCC21 (stereo not shown) | AML12 | lipid accumulation, Nile Red staining | – | added: palmitate/oleate | – | IC50 | 35.9 ± 4.21 µM |
| CC(=O)n1cc([C@H]2C=C(C(=O)N3CCN(Cc4ccc5c(c4)OCO5)CC3)O[C@@H](OCc3ccc(CO)cc3)C2)c2ccccc21 | Trypanosoma cruzi | reporter mRNA translation, inhibitor, measured: Renilla luciferase mRNA | cell-free extract | concentration not given, test 3 | reference: positive over negative control | translation activity | 49.5% |
| CCCCCCCCCC(=O)Oc1c(C)c(OC)c2c(c1C)OC(=O)C(CCCCCCCC)C2(O)C=Cc1ccccc1 (stereo not shown) | FaDu | cell growth or viability, SRB | – | 72 h | – | IC50 | > 50 µM |
| O=C1CCC(N2C(=O)c3ccc(N4CC(C(=O)N5CC(CN6CCC(CNC(=O)c7cccc(-c8noc(C(F)(F)F)n8)c7)(c7nc(-c8ccccc8)cs7)CC6)C5)C4)cc3C2=O)C(=O)N1 (stereo not shown) | JeKo-1 CRBN knockout | cell proliferation | – | 168 h | – | IC50 | 7 ± 2.29 µM |
| COc1ccc(/C=C/CN2CCCC(CCC(=O)NCc3ccc(F)c(F)c3)C2)cc1 (stereo not shown) | Trypanosoma cruzi | reporter mRNA translation, inhibitor, measured: Renilla luciferase mRNA | cell-free extract | concentration not given, test 1 | reference: positive over negative control | translation activity | 149% and 114% |
| COC1CN([C@H]2CC[C@H]([C@@]3(C)Oc4c(Cl)cc(C(=O)NCc5c(SC)cc(C)[nH]c5=O)c(C)c4O3)CC2)C1 | – | RNA-seq, measured: FAM131B | human, whole blood | dose not given, 24 h | reference: pretreatment baseline | log2 fold change | 2.26 |
| C=CC(=O)Nc1cc(Nc2nccc(-c3cn(C)c4ccccc34)n2)c(OC)cc1N(C)CCN(C)C | Ba/F3 EGFR 19Del/C797S BBT-176-resistant BR1 | cell growth | – | 72 h | – | IC50 | > 1 µM |
| O=C(OCc1ccc(O[C@@H]2O[C@H](CO)[C@@H](O)[C@H](O)[C@H]2O)cc1)c1ccc(O)cc1 | T47D breast cancer | cell viability, MTT | DMEM with 10% FBS | 48 h | – | IC50 | > 200 µM |
| CN1CCCNC(=O)c2cccc(c2)C(=O)NCCCN(C)CCCNc2cccc3c2C(=O)c2cccc(c2C3=O)NCCC1 | SAS | RNA-Seq, measured: SCO1 mRNA | – | 1 µM, 6 h | reference: untreated cells | log2 fold change | -0.53 |
| N#Cc1c(N)nc2c(c1-c1ccc(CO)o1)CCc1cc(O)ccc1-2 | HBP-ALL | cell viability, CellTiter-Glo | – | – | no inhibition at 100 µM | IC50 | 8.1 µM |

Repeated from above:
| SMILES | target or system | assay | test system | conditions | how to read | quantity | result |
| --- | --- | --- | --- | --- | --- | --- | --- |
| CN(C)c1ccc(/C=C/c2cc(/C=C3\Sc4ccccc4N3CCCN3CCCC3)c3ccccc3[n+]2C)cc1 | HK-2 | cell growth or viability, MTT | – | 36 h | – | IC50 | 10.4 µM |
